Experimental data pooled from the literature.
Each numbered part is a random draw from the data of one study; scales do not carry over between parts. ± gives the spread as reported.
Chain of UniProt P08603 (whole entry, unmodified, looked up): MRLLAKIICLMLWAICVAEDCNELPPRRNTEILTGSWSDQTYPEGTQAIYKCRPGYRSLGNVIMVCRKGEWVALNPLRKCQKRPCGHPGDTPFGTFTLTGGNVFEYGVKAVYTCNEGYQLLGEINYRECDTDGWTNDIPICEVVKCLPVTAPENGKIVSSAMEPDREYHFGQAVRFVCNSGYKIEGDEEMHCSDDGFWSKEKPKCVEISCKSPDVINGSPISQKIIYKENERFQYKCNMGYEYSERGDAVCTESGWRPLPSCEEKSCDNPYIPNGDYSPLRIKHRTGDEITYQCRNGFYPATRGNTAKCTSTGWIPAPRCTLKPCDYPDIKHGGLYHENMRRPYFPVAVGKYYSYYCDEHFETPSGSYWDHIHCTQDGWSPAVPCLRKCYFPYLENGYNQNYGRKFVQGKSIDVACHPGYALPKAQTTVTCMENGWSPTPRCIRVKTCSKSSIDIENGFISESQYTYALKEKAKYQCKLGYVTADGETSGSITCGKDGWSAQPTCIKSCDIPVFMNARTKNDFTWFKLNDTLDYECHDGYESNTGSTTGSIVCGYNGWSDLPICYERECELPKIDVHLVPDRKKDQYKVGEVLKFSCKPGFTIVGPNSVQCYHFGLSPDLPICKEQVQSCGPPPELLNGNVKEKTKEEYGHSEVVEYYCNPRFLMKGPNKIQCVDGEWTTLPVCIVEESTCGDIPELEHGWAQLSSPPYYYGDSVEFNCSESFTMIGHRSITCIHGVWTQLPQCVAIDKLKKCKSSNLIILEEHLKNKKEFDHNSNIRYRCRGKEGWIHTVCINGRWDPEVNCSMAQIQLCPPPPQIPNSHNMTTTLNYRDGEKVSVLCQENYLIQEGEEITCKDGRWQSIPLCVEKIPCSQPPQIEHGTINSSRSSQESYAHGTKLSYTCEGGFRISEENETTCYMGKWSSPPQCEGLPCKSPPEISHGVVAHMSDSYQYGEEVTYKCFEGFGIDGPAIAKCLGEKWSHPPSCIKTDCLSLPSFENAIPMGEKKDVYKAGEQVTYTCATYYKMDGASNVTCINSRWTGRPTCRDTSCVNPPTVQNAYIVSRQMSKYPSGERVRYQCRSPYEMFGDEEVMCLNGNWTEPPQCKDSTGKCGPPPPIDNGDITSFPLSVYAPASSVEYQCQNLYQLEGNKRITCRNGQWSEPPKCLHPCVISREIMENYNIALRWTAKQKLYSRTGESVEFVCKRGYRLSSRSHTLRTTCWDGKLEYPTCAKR
Chain of UniProt Q182S9 (whole entry, looked up): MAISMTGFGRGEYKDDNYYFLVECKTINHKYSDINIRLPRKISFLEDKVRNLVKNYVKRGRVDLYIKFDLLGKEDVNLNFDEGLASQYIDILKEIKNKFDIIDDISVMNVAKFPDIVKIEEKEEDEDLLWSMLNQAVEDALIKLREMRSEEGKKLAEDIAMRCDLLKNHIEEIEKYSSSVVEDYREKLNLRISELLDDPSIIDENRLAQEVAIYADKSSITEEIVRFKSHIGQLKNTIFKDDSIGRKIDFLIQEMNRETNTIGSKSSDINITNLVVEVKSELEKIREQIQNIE

Study 1
Read-out: T cell recognition
Technique: HLA-B*07:02 tetramer staining
Molecule type: peptide
Cells: CD8+ T cells
Host: COVID-19 convalescent human subjects, HLA-B*07:02
Dose: dose not given
Notes: 5 subjects tested
For `HADQLTPTW`, “tetramer-reactive CD8+ T cell count” read 3.
Under “tetramer-reactive CD8+ T cell count”, `EEFEPSTQYEY` is recorded as 4.
For `KRVDWTIEY`, “tetramer-reactive CD8+ T cell count” read 3.
`APRITFGGP`: “tetramer-reactive CD8+ T cell count” 1.
For `IRQEEVQEL`, “tetramer-reactive CD8+ T cell count” read 4.
`QLTPTWRVY`: “tetramer-reactive CD8+ T cell count” 0.
For `ELPDEFVVVTV`, “tetramer-reactive CD8+ T cell count” read 4.

Mixed results
B1: PPP2R5A E106R (Homo sapiens, UniProt Q15172-1); chain MSSSSPPAGAASAAISASEKVDGFTRKSVRKAQRQKRSQGSSQFRSQGSQAELHPLPQLKDATSNEQQELFCQKLQQCCILFDFMDSVSDLKSKEIKRATLNELVRYVSTNRGVIVESAYSDIVKMISANIFRTLPPSDNPDFDPEEDEPTLEASWPHIQLVYEFFLRFLESPDFQPSIAKRYIDQKFVQQLLELFDSEDPRERDFLKTVLHRIYGKFLGLRAFIRKQINNIFLRFIYETEHFNGVAELLEILGSIINGFALPLKAEHKQFLMKVLIPMHTAKGLALFHAQLAYCVVQFLEKDTTLTEPVIRGLLKFWPKTCSQKEVMFLGEIEEILDVIEPTQFKKIEEPLFKQISKCVSSSHFQVAERALYFWNNEYILSLIEENIDKILPIMFASLYKISKEHWNPTIVALVYNVLKTLMEMNGKLFDDLTSSYKAERQREKKKELEREELWKKLEELKLKKALEKQNSAYNMHSILSNTSAE
For `trehalose dimycolate`, “macrophage and dendritic cell increase” read 25 ± 6.4% (flow cytometry; C57BL/6 mice, lung; intravenous, 100 µg, day 5; baseline: vehicle).
The Kd of `cbpA fragment (Streptococcus pneumoniae)` is reported as 38 ± 1.2 µM (CFH 508-567 Y547A (Homo sapiens, UniProt P08603); ITC).
`TFFRLFNRSFTGRRRRSVQWCA`: “protein level ratio” -5.09 (Streptococcus mutans; 2D-DIGE, refers to: cysteine synthase A; peptide, UA159; 20 µg/mL, 1 h; baseline: water control).
For `GGUGUAAAUUGUCCUUUUUGUAACUUUAAUUCCUUGUACUUAAUAUCAUUUAUUGAAUUUACUGCUCUAGAUAAAGUACCUACUUCUCUUAAUAUAUUACUAUCUAAAGUCUUAAUCAAACACACCUCCACUGAAACUACCAUGGCUAAAGUCAAAUAGUUUCUGUUUUAUAGAAUUUCACAUAAUCAAUAUUUUCAUUUUUAGUUGAAAGUUCAACUUUUUUAAAUUUUACCAU (structured RNA)`, binding read “binds” (YicC 1-151 (Clostridioides difficile, UniProt Q182S9); EMSA).
For `TTTATAAAAAACCAATATATGTCTTGACACATGTAAAAAACGTTGTATAATG (dsDNA)`, binding read “binds” (niaR 1-174 Y108A (Streptococcus mutans, UniProt Q8DVX8); EMSA; double-stranded DNA, one strand shown).
With `α-dendrotoxin` the IC50 was 0.00027 µM (Kv channel (rat); radioligand binding, antagonist).
`B1 (PPP2R5A E106R)`: binding “binds” (Vif/CBFB/ELOB/ELOC (HIV-1/Homo sapiens); pull-down).

A few entries again (mixed results):
`B1 (PPP2R5A E106R)`: binding “binds” (Vif/CBFB/ELOB/ELOC (HIV-1/Homo sapiens); pull-down).
For `TTTATAAAAAACCAATATATGTCTTGACACATGTAAAAAACGTTGTATAATG (dsDNA)`, binding read “binds” (niaR 1-174 Y108A (Streptococcus mutans, UniProt Q8DVX8); EMSA; double-stranded DNA, one strand shown).
